Measured values of several laboratories.
Compare with care: the assays were run in different laboratories. Several values in a cell are separate wells, animals, samples, runs or records. ± gives the spread as reported.
ache: Acetylcholinesterase (ache, Electrophorus electricus, UniProt O42275)
Sequence of UniProt A5GZW8 (whole entry, looked up): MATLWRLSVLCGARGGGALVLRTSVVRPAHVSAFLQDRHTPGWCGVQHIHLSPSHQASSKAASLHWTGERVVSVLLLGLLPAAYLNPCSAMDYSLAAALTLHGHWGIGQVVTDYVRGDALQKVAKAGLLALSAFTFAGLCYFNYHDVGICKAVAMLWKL
Sequence of UniProt Q007T0 (whole entry, looked up): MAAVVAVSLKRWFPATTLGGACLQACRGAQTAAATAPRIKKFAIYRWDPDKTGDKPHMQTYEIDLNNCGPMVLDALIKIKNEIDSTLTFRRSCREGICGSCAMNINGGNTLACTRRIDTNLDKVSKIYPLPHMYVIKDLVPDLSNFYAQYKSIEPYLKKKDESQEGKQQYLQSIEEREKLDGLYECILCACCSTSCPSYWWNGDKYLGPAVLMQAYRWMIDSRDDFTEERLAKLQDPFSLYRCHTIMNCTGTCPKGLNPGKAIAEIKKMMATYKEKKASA
Sequence of UniProt D0VWV4 (whole entry, looked up): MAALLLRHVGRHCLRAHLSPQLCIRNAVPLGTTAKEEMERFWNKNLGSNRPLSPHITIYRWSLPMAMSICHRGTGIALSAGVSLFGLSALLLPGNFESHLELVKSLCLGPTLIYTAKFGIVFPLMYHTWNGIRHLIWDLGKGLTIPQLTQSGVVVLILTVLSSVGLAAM
Sequence of UniProt O42275 (whole entry, looked up): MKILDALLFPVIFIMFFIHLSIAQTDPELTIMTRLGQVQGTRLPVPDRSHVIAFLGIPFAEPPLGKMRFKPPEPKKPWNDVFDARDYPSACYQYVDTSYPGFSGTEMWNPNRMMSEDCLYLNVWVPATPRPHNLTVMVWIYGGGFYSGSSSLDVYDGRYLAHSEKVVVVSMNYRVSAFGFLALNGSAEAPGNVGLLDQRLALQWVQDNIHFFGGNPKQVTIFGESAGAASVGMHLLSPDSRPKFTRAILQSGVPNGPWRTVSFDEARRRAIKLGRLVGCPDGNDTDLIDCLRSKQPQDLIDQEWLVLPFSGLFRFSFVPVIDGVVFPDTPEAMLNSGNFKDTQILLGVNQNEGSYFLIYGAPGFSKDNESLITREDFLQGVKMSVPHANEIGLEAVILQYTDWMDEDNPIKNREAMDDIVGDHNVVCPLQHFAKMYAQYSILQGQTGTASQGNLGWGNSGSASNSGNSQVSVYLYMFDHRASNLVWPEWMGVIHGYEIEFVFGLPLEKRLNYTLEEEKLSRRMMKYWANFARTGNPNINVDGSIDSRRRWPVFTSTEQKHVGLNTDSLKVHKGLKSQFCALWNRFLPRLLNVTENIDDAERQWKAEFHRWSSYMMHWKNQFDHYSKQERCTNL
Sequence of UniProt Q8TBX8 (whole entry, looked up): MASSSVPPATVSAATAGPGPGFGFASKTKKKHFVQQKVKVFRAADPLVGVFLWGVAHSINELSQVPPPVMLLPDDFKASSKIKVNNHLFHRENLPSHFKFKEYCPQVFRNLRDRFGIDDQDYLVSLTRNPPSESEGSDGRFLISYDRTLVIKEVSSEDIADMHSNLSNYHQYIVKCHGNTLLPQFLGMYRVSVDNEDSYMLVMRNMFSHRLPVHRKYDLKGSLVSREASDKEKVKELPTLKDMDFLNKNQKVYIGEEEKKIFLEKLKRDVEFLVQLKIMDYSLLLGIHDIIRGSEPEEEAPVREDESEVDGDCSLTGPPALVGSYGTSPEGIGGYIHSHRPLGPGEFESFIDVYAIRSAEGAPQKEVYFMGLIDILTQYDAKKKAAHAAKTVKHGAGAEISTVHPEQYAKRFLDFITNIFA
Sequence of UniProt P03372 (whole entry, unmodified, looked up): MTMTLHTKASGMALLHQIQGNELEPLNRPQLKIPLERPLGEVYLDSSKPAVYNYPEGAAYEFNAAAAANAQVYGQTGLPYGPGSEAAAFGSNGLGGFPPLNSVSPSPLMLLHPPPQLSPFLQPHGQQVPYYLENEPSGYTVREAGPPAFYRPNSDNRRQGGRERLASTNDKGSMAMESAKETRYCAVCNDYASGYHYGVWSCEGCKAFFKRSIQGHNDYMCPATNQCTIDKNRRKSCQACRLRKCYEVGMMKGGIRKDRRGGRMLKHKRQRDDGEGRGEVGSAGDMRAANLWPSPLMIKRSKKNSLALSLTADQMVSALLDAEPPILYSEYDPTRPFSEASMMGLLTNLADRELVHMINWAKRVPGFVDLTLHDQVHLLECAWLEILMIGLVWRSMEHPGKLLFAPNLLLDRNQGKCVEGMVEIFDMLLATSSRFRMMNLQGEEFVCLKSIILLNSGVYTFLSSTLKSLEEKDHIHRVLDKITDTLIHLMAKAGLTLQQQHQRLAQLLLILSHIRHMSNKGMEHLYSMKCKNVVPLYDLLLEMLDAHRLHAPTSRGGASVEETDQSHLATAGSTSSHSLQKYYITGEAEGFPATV
Sequence of UniProt Q13224 (whole entry, unmodified, looked up): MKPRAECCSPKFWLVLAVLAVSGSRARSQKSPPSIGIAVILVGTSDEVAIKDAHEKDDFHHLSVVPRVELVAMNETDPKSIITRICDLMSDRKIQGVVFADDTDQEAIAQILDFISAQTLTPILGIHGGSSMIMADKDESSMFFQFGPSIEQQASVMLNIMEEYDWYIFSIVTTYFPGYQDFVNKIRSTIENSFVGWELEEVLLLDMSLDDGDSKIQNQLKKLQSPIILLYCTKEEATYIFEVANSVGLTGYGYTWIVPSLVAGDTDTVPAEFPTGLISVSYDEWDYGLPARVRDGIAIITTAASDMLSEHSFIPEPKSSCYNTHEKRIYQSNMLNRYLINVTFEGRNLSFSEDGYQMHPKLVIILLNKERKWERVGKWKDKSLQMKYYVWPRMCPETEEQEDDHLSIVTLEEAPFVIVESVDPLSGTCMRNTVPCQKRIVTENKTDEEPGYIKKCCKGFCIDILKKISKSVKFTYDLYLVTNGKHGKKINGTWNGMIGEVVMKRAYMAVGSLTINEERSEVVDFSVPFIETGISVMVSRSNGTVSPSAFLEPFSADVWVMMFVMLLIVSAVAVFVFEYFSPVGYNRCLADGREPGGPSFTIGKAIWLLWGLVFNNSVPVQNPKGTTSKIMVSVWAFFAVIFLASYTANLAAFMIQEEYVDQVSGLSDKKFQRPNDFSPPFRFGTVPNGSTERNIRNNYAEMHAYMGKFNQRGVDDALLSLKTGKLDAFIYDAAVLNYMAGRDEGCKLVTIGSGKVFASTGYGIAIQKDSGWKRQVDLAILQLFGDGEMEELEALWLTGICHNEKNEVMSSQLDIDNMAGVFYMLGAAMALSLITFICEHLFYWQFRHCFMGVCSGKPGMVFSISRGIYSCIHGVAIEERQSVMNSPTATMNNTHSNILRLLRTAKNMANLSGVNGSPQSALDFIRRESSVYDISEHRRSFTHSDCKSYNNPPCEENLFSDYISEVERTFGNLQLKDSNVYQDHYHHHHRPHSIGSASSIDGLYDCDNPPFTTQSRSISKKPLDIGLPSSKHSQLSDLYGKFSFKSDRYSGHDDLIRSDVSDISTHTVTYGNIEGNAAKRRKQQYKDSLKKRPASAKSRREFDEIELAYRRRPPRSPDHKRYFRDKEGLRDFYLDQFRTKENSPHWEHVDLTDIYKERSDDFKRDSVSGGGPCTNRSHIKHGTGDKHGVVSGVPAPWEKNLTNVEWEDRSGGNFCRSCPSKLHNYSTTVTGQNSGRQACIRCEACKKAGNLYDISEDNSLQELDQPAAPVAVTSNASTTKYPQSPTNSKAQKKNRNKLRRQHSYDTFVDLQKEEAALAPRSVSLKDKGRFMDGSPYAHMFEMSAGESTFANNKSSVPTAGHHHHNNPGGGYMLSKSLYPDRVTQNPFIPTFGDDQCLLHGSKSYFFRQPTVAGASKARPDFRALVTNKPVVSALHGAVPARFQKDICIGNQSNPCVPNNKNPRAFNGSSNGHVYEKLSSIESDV
Sequence of UniProt Q14654 (whole entry, looked up): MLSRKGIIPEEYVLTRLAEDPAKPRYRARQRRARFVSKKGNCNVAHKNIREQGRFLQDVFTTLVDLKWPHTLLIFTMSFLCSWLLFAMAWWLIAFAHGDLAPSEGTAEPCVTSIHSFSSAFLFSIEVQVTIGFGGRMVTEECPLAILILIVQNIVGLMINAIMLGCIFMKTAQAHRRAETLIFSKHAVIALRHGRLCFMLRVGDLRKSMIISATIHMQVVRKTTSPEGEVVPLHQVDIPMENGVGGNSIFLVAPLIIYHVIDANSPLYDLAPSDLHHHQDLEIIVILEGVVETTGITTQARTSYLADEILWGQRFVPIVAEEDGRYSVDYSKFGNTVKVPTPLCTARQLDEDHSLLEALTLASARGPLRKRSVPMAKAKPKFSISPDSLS
Sequence of UniProt P61962 (whole entry, looked up): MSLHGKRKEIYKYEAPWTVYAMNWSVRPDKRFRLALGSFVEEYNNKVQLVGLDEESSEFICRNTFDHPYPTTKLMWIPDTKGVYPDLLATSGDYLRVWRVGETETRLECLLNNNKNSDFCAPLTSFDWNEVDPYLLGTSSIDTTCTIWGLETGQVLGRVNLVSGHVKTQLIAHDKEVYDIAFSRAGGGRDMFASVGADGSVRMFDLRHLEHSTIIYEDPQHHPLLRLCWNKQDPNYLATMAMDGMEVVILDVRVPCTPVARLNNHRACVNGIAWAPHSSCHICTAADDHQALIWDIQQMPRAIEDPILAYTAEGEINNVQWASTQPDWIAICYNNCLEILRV
Sequence of UniProt P07026 (whole entry, looked up): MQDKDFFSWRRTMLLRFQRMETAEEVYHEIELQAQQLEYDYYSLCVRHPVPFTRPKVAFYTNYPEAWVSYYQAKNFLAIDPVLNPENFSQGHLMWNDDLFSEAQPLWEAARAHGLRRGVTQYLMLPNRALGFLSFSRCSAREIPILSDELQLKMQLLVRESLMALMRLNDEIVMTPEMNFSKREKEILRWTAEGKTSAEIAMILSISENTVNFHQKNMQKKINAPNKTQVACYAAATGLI
Sequence of UniProt P00942 (whole entry, unmodified, looked up): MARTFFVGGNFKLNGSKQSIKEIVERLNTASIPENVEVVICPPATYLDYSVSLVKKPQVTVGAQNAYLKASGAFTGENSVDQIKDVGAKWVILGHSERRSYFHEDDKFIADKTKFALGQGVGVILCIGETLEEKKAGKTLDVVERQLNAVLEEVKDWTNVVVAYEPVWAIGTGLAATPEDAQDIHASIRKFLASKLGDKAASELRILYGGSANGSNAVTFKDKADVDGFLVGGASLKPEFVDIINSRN

Compound | target or system | assay | test system | conditions | scale | measurement | result
C[C@H]1CN(c2n[nH]c3nc(N[C@H]4CC[C@H](NS(=O)(=O)CCC(F)(F)F)CC4)ncc23)CCO1 | Protein Aster-A (Homo sapiens, UniProt Q96CP6) | Kinobeads competition, item: GRAMD1A |  | 0.8 µM, unit not given | baseline: vehicle | remaining binding | 1.33
O=C(Nc1cnccc1Cl)N1CCN(Cc2ccc3c(c2)OC(F)(F)O3)CC1 | 5-hydroxytryptamine receptor 3A (HTR3A, Homo sapiens, UniProt P46098) | radioligand binding |  | 10 µM, added: [3H]GR-65630 |  | inhibition of binding | 5%
Oc1ccc(-c2cccc(Cl)c2)cc1Cl | Estrogen receptor (ESR1, Homo sapiens, UniProt P03372) | reporter gene, agonist | T47D.luc | 24 h | baseline: estradiol | EC25 | 5 µM
C=C(CN(C(=O)c1c(C(F)F)nn(C)c1F)C1CC1)c1ccc(Cl)cc1Cl | SDHD/SDHC/SDHB (Sus scrofa, UniProt A5GZW8+D0VWV4+Q007T0) | enzyme activity, inhibitor, DCIP reduction | pig | 0.2 µM, added: DCIP 80 µM |  | reaction velocity | 0.0137 µM/s and 0.0142 µM/s and 0.0146 µM/s
CCN(CC)S(=O)(=O)c1ccc(Cl)c(C(=O)Nc2ccc3nc(C)sc3c2)c1 | Acetyl-CoA synthetase (Cryptococcus neoformans, UniProt J9VFT1) |  |  | 50 µM |  | remaining activity | 86.5% and 84.5%
COc1ccc2[nH]c3c(c2c1)CCN(C)CC3.Cl | Nicotinic acetylcholine receptor alpha9/alpha10 (Rattus norvegicus, UniProt P43144+Q9JLB5) | ion current, inhibitor, two-electrode voltage clamp | Xenopus laevis oocytes | 10 µM, rat receptor, added: acetylcholine 100 µM |  | recovery time constant | 19 ± 1.1 s
CC(C)[C@@H](O)CC[C@@H](C)[C@H]1CC[C@H]2[C@@H]3CC=C4C[C@@H](O)CC[C@]4(C)[C@H]3CC[C@]12C | Glutamate NMDA receptor; GRIN1/GRIN2B (GRIN1/GRIN2B, Homo sapiens, UniProt Q05586+Q13224, A652C) | two-electrode voltage clamp | Xenopus oocytes | concentration not given, with PAM, from MTSEA potentiation, added: MTSEA |  | open probability | 0.07 ± 0.005
O=C(O)COP(=O)(O)O | TPI1 (Saccharomyces cerevisiae, UniProt P00942, S211G) | enzyme activity, competitive inhibitor, GPDH/NADH-coupled |  | pH 9.9, 25 °C, ionic strength 0.1 NaCl, added: glyceraldehyde 3-phosphate substrate | baseline: mutant over wild type | Ki ratio | 1.6
CC12CCC(CC1)C(C)(C)O2 | 1,8-cineole 2-endo-monooxygenase (cinA, Citrobacter braakii, UniProt Q8VQF6, Y81F) | NADPH turnover |  | Y81F mutant | baseline: wild type | Vmax decrease | ~30%
Nc1ccc(O)c(C(=O)O)c1 | ppk (Escherichia coli, UniProt P0A7B1, E245K) | inhibitor |  | 1 mM | baseline: DMSO | polyphosphate synthesis | inhibited
COc1ncccc1-c1cnn2ccc(N3CCN(C(=O)OC(C)C)CC3)nc12 | Ribosomal protein S6 kinase alpha-6, N-terminal kinase domain (RPS6KA6, Homo sapiens, UniProt Q9UK32) | KINOMEscan binding |  | 1 µM | baseline: untreated control | remaining binding | 96%
O=C(Nc1cccnn1)N1CCC(=Cc2cccc(Oc3ccc(C(F)(F)F)cn3)c2)CC1 | Mu-type opioid receptor (OPRM1, Homo sapiens, UniProt P35372) | radioligand binding, inhibitor |  | 10 µM, human, added: [3H]diprenorphine |  | inhibition | 23%
CCN(CC)CCNC(=O)c1[nH]c2ccccc2c1Sc1ccc(Cl)cc1 | Vero-E6 | CellTiter-Glo ATP |  | 72 h, second round 5-point | baseline: DMSO 0%, hyamine -100%, more negative, more toxic | maximum response | -3.17%
O=c1c2ccccc2oc2cc(OCCCCc3ccccc3)ccc12 | ache | enzyme activity, inhibitor, Lineweaver-Burk plot |  | 0.73 µM | higher = faster reaction | Vmax | 0.0044 a.u.
O=C(CCCCCCCCCN=C=S)CC(=O)N[C@H]1CCOC1=O | Regulatory protein SdiA (sdiA, Escherichia coli, UniProt P07026) |  |  |  |  | Emax | ~70%
COC(=O)[C@@]1(O)C[C@H]2O[C@]1(C)n1c3ccccc3c3c4c(c5c6ccccc6n2c5c31)C(=O)NC4 | Mitogen-activated protein kinase 3 (MAPK3, Homo sapiens, UniProt P27361) | ADP-Glo |  | 35 µM, added: substrate MBP |  | remaining activity | 115%
COc1cc(N)c(Cl)cc1C(=O)NC1CN2CCC1CC2 (stereo not drawn) | Trace amine-associated receptor 1 (TAAR1, Homo sapiens, UniProt Q96RJ0) | β-arrestin recruitment, TANGO luminescence, item: TA1 |  | concentration not given | baseline: basal luminescence | log2 fold change | 0.124
O=[As](O)(O)c1ccc(Cc2ccc([As](=O)(O)O)cc2)cc1 | Autotaxin (ENPP2, Homo sapiens, UniProt Q13822) |  |  | 10 µM, 30 min, added: FS-3 | baseline: enzyme alone | product formation | 98%
CN[C@H]1CC[C@@H](c2ccc(Cl)c(Cl)c2)c2ccc(S(N)(=O)=O)cc21 | DDB1- and CUL4-associated factor 7 (Homo sapiens, UniProt P61962) | binding, affinity selection mass spectrometry |  | 100 nM, pooled screen | baseline: other proteins | fold change | 30.2
O=C(O)C(/C=C/c1ccc(Cl)cc1)=N\Nc1nc(-c2ccccc2)cs1 | ache | Ellman |  |  | baseline: IC50 BChE over IC50 AChE | selectivity index | 2.37
CC(=O)SCC[N+](C)(C)C | acetylcholinesterase, Homarus americanus | enzyme activity, substrate, Ellman | ventral nerve cord homogenate | pH 7.4 |  | Km | 50 µM
COc1ccc(N2C(=O)N(c3c(C)cccc3Cl)Cc3cnc(Nc4ccc(C5CCN(C)CC5)cc4OC)nc32)nc1 | Tyrosine-protein kinase ZAP-70 (ZAP70, Homo sapiens, UniProt P43403) | kinase activity |  | 0.5 µM |  | inhibition | 1.12%
Nc1ncnc2c1ncn2[C@@H]1O[C@H](COP(=O)(O)OP(=O)(O)OP(=O)(O)O)[C@@H](O)[C@H]1O | ATP-sensitive inward rectifier potassium channel 11 (Homo sapiens, UniProt Q14654) | single-channel patch clamp |  | concentration not given, reactivation after rundown |  | short open time constant | 1 ± 0.3 ms
Cc1nn(C)cc1-c1nc2c(N3CCN(Cc4ccc(Cl)cc4)CC3)c(Cl)cnc2[nH]1 | Cyclin-dependent kinase-like 5 (CDKL5, Homo sapiens, UniProt O76039) | KINOMEscan |  | 1 µM | baseline: DMSO control | remaining binding | 99%
OB(O)c1csc2ccccc12 | Uncharacterized hydrolase SAUSA300_2518 (Staphylococcus aureus, UniProt Q2FDS6) | FP-Cy5 probe labeling, inhibitor, competitive activity-based labeling |  |  |  | IC50 | > 50 µM
CN1C(=O)CC[C@H](N2Cc3c(ccc4c3OCC43CCN(C[C@@H]4CCC5(CCN(c6ccc([C@@H]7c8ccc(O)cc8CC[C@@H]7c7ccccc7)cc6)CC5)OC4)CC3)C2=O)C1=O | Estrogen receptor (ESR1, Homo sapiens, UniProt P03372, Y537S) | degrader, Western blot | MCF7 (ESR1 Y537S) | 10 and 100 nM, 7 h |  | ER protein level | no effect
O=C(c1ccc(Cl)cc1)N1CCN2C(=O)N(OC(=O)N3CCOc4ccccc43)C(=O)C2C1 (stereo not drawn) | Actin, cytoplasmic 1 (ACTB, Homo sapiens, UniProt P60709) | MS-based ABPP | SW-620 conditioned medium | 10 µM | baseline: compound over DMSO, lower = more inhibition | median protein ratio | 1
CCCCC(=O)Nc1ccc(-c2ccc3ncn(CCC)c(=O)c3c2)cn1 | Phosphatidylinositol 5-phosphate 4-kinase type-2 gamma (PIP4K2C, Homo sapiens, UniProt Q8TBX8) | binding |  |  | baseline: PI5P4Kβ over PI5P4Kα | selectivity ratio | 3000 fold and > 3000 fold
[2H]c1c([2H])c([C@]2([2H])CCCN2C(=O)C(C)(C)Oc2ccc3cn[nH]c3c2)c([2H])c([2H])c1C([2H])([2H])[2H] | Cyclin-dependent kinase 11A (CDK11A, Homo sapiens, UniProt Q9UQ88) | KINOMEscan |  | 1 µM | baseline: DMSO control | remaining binding | 91%
Cc1ccc(-c2cccc(CN3CCCC(NC(=O)c4c(C)noc4C)C3)c2)cc1Cl (stereo not drawn) | Vero-E6 | CellTiter-Glo ATP |  | 72 h, first round 5-point | baseline: DMSO 0%, hyamine -100%, more negative, more toxic | maximum response | -2.44%
